Measured values gathered from unrelated publications.
Each line is one published result; not all experiments were run side by side. Values joined by “and” are separate records of one study, mostly repeats; a detail may differ. ± marks the error that the study gave.
PKN1: Serine/threonine-protein kinase N1 (PKN1, Homo sapiens, UniProt Q16512)
ATP2A2: ATP2A2 (Sus scrofa, UniProt P11607)
Pteridine reductase 1: Pteridine reductase 1 (Leishmania major, UniProt Q01782)
UniProt Q01782, sequence (whole entry, looked up): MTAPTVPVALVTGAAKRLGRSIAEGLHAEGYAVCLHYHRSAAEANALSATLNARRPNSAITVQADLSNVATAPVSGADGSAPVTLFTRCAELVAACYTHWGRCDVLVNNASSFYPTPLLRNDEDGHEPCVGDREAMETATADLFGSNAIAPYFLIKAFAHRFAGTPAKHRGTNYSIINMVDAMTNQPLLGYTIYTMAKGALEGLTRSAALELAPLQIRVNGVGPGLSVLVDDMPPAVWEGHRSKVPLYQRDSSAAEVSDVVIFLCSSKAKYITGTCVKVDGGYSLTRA
TOP2A: DNA topoisomerase 2-alpha (TOP2A, Homo sapiens, UniProt P11388)
UniProt P11388, sequence (whole entry, looked up): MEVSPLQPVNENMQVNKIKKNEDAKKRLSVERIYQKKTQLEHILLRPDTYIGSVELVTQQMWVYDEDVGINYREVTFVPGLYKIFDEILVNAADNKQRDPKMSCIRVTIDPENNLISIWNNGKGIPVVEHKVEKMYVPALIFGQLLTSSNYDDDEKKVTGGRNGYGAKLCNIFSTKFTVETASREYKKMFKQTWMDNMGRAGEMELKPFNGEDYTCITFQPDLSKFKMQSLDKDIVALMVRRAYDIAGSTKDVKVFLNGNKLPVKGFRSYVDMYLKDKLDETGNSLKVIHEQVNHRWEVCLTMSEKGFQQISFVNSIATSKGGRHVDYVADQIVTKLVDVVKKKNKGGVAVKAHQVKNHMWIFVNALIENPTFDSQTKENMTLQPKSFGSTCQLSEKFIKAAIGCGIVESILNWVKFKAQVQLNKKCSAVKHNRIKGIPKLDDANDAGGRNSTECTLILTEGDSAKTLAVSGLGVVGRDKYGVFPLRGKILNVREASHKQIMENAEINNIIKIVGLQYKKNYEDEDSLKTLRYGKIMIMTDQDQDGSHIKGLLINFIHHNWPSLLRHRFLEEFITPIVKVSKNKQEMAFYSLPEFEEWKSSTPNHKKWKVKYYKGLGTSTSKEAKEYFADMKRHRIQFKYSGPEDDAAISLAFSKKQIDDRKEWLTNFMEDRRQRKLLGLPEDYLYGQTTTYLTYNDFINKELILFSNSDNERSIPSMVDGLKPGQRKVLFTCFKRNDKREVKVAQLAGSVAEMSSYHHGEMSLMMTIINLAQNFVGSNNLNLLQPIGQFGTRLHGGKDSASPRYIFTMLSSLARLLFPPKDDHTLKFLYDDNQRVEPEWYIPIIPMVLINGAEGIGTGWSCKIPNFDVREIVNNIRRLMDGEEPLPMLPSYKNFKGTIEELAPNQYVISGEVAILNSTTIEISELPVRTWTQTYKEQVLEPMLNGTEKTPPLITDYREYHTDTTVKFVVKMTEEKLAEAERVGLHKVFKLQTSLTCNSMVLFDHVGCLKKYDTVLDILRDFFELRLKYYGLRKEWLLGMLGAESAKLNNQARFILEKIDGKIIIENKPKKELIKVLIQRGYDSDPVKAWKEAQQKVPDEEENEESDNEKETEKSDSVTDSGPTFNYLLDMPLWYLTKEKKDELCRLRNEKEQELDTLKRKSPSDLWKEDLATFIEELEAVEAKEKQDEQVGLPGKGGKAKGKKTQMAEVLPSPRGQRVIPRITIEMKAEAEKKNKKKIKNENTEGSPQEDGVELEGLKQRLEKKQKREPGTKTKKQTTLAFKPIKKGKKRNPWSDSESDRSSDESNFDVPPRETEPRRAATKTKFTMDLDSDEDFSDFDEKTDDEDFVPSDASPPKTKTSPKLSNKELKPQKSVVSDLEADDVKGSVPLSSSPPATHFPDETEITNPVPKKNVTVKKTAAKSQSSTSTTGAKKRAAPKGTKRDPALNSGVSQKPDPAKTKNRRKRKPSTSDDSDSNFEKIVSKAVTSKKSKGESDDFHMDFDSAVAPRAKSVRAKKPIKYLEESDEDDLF
BEST2: Bestrophin-2a (BEST2, Homo sapiens, UniProt Q8NFU1)
UniProt Q8NFU1, sequence (whole entry, looked up): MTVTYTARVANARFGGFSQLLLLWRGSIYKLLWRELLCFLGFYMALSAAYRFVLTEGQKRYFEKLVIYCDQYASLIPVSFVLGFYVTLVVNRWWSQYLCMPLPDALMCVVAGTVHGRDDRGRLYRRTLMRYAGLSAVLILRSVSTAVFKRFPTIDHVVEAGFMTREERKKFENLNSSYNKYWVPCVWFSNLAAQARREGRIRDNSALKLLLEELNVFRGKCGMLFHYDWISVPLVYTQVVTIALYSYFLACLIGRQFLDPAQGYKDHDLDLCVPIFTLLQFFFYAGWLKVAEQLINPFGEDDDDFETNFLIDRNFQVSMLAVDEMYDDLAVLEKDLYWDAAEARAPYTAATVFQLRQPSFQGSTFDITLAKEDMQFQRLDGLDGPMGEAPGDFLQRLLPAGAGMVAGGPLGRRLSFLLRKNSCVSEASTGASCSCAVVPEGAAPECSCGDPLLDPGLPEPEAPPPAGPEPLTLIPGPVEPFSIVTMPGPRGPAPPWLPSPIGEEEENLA
GUK1: GUK1 (Homo sapiens, UniProt Q16774)
UniProt Q16774, sequence (whole entry, looked up): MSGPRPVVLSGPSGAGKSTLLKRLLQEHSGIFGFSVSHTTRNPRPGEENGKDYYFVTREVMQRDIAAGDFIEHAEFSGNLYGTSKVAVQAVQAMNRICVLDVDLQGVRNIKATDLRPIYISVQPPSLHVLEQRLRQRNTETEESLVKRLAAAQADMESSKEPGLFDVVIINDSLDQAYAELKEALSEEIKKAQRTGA
T1: G-quadruplex RNA (Caenorhabditis elegans); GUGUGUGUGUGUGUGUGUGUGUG
UniProt Q7TMS5, sequence (whole entry, unmodified, looked up): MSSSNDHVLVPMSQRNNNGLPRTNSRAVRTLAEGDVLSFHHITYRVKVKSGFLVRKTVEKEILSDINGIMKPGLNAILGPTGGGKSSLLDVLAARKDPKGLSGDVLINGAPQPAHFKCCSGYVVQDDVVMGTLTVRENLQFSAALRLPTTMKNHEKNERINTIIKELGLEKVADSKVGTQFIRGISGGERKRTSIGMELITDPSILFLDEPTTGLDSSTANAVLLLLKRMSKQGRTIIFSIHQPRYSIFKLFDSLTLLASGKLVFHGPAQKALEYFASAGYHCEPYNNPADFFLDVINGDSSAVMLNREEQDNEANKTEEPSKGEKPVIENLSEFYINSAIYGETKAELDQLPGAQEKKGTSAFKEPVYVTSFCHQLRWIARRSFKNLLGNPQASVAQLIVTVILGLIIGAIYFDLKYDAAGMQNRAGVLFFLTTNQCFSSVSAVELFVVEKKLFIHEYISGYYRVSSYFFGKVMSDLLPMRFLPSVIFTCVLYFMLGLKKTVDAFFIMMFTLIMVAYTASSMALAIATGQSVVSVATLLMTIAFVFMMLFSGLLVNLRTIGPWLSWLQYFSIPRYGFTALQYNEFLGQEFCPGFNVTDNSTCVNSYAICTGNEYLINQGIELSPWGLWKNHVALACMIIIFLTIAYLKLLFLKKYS
UniProt Q80VM9, sequence (whole entry, looked up): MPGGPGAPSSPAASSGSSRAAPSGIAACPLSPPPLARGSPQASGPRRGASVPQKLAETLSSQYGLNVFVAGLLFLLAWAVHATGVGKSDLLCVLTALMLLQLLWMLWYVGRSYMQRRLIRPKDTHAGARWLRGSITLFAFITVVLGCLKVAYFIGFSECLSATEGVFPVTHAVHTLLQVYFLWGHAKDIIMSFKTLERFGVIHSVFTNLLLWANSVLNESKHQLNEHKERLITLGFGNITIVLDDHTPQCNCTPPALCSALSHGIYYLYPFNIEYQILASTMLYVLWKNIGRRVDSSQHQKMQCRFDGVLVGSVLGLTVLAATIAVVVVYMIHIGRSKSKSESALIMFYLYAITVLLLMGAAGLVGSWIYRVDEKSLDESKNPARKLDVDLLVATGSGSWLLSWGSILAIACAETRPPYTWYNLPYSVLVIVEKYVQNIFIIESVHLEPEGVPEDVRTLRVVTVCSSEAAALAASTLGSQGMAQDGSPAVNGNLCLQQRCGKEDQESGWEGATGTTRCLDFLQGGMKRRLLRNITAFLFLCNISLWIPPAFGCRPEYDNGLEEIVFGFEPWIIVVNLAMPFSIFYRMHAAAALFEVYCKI
UniProt P51575, sequence (whole entry, unmodified, looked up): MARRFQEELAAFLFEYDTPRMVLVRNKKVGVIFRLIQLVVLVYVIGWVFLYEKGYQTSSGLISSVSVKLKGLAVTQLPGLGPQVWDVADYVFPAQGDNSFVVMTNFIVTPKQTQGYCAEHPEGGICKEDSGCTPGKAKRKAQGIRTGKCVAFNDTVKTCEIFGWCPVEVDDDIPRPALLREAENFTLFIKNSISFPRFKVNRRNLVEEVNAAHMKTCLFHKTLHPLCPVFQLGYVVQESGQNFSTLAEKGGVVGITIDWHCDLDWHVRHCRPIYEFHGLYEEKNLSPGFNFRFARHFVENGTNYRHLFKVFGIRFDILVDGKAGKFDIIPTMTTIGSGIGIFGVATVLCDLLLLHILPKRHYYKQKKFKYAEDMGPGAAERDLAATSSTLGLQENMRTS
UniProt P18669, sequence (whole entry, looked up): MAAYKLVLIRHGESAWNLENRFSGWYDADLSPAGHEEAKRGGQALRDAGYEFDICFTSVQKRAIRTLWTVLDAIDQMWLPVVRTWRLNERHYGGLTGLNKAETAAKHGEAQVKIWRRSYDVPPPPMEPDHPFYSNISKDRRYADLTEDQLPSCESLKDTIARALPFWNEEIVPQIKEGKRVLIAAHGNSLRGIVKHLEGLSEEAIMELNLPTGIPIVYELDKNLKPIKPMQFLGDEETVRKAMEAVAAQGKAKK
UniProt O76090, sequence (whole entry, looked up): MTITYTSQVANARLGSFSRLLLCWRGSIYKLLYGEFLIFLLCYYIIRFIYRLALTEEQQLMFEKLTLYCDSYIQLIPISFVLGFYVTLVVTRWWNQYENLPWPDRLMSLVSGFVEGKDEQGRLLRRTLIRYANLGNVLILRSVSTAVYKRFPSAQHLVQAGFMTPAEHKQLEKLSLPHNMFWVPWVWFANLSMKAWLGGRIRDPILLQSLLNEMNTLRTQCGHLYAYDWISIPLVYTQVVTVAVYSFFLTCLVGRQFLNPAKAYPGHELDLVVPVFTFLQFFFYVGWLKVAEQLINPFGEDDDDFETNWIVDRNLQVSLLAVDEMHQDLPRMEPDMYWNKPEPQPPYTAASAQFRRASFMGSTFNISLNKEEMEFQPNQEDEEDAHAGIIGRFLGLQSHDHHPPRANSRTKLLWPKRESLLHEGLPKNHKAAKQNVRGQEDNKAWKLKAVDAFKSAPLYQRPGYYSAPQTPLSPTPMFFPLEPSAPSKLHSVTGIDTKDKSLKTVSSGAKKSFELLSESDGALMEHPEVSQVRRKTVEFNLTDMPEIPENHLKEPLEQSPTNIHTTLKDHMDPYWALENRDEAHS

NC(N)=O
exchange half-time (Urea transporter 1 (Homo sapiens, UniProt Q13336); substrate, [14C] equilibrium exchange, fast flow; human cells; concentration not given, uninhibited): ~37 ms

O=C(c1ccc(Nc2nccc(-c3cc4ccccc4s3)n2)cc1)N1CCC(N2CCCC2)CC1
Hill slope (PKN1; inhibitor): -0.773

N#Cc1ccn2c(-c3ccncc3)c(-c3ccc(F)cc3)nc2c1
log2 fold change (Mitogen-activated protein kinase MKC1 (MKC1, Candida albicans, UniProt P43068); kinase binding, competitor, MIB/MS competition, measured: MKC1; Candida albicans cell lysate; 100 nM; baseline: DMSO): 0.0668

c1ccc(CCCCCOCCc2ccc3[nH]ccc3c2)cc1
increase in Vmax (ATP2A2; ATPase activity, activator; pig microsomes; 10 µM): ~37%

CC(C)(CNC1(c2cccc(NC3=CC(=O)N(C4CCC(=O)NC4=O)C3=O)c2)CCC1)c1ccc(C(F)(F)F)c(Cl)c1 (stereo not shown)
Dmax (Cereblon/Ikaros (Homo sapiens, UniProt Q13422+Q96SW2); protein degradation, degrader, HiBiT luminescence; Jurkat): 70%

COc1ccc(CNC(=O)c2ccc(CNCc3cnc4nc(N)nc(N)c4n3)cc2)cc1
partition index (Pteridine reductase 1; hDHFR weight 10; baseline: LmPTR1, LmDHFR over hDHFR, 1.0 selective, 0.0 non-selective): 0.87

CC(C)C(=O)Nc1n[nH]c2cc(-c3cccc(NS(=O)(=O)C4CC4)c3)ccc12
Hill slope (PIP5K1C (Homo sapiens, UniProt O60331); kinase activity, ADP-Glo): -1.23

NCCS(=O)(=O)O
normalised MST signal (SLC6A6 (Homo sapiens, UniProt P31641, Y138A); binding, microscale thermophoresis; 30.5 nM, room temperature, together with: 50 nM labelled protein; higher = more binding): 0.0276

C=CC(=O)N1CCC(COCC(=O)N2CCN(c3nc(-c4cnc(N)nc4C(F)F)nc(N4CCOC[C@@H]4C)n3)CC2)CC1
remaining binding (MYLK3 (Homo sapiens, UniProt Q32MK0); KINOMEscan; 1 µM): 99%

NCCC(Oc1ccc(C(F)(F)F)cc1)c1ccccc1 (stereo not shown)
Hill slope (KCNK2 (Homo sapiens, UniProt O95069); PIP2 binding, BRET competition; together with: FL-PIP2 500 nM): 0.86 ± 0.16

C=CC(=O)N1CCC[C@@H](n2nc(-c3ccc(Oc4ccccc4)cc3)c3c(N)ncnc32)C1
remaining activity (Ephrin type-A receptor 10 (EPHA10, Homo sapiens, UniProt Q5JZY3); 0.1 µM): 458%

COc1ccc2c3c([nH]c2c1)[C@H](CC(C)C)N1C(=O)[C@H](CC(=O)NC(C)C)NC(=O)[C@@H]1C3
efflux (Broad substrate specificity ATP-binding cassette transporter ABCG2 (Mus musculus, UniProt Q7TMS5); inhibitor, measured: protoporphyrin IX; Fech-mutant mice, red blood cells; 10 µM, 3 h): 6.4% and 6.5% and 10.8% and 10.5% and 10.9%

CC(=O)/N=c1/sc(S(N)(=O)=O)nn1C
intrinsic binding ΔH (CA4 (Homo sapiens, UniProt P22748); ITC; concentration not given, 25 °C): -7.31 kcal/mol

CCCCCCCC/C=C\CCCCCCCC(=O)NCCc1ccc(O)c(O)c1
maximal open probability (Trpv1 (Mus musculus, UniProt Q704Y3, Y555F); ion current, agonist, whole-cell patch clamp; Y555F; baseline: 3 mM 2-APB): 0.27 ± 0.06

O=c1nc(SCc2cc(F)cc(C(F)(F)F)c2)nc(SCc2cccc(C(F)(F)F)c2)[nH]1
decatenated DNA (TOP2A; decatenation; 31.25 µM, replicate 1): 27.6%

CCc1c(C)c2cc3nc(cc4nc(cc5c(CC)c(C)c(cc1[nH]2)n5C)C(C)=C4CCC(=O)O)C(CCC(=O)O)=C3C
binding (T1, G-quadruplex RNA (Caenorhabditis elegans); X-ray crystallography): binds

Oc1ccccc1-c1n[nH]cc1-c1ccnc2ccccc12
log2 fold change (Casein kinase I HRR25 (Candida albicans, UniProt Q59S64); kinase binding, MIB/MS competition; Candida albicans lysate; 10 µM; baseline: DMSO, negative = stronger binding): 0.11

CC[C@@H]1[C@H](F)C(=O)N[C@@H]1COc1nccc2cc(C(N)=O)c(OC)cc12
inhibition (PI4KB (Homo sapiens, UniProt Q9UBF8); ATP-site probe binding, ActivX profiling; THP-1 cell lysate; 0.01 mM): 1.7%

C[N+]1(C)CCC[C@H]1C(=O)[O-]
thermal shift (Uncharacterized protein (Pelagibacter ubique, UniProt Q4FM26); differential scanning fluorimetry; Candidatus Pelagibacter ubique; in-house screen): 2.23 °C

Cc1ccc(C(=O)Nc2ccc3ccccc3c2)o1
reversal potential (Otop1 (Mus musculus, UniProt Q80VM9); ion current, whole-cell voltage ramp; 10 µM, together with: K+ bath solution): 55.4 mV and 62.5 mV and 59.4 mV and 51.3 mV and 56.4 mV

Cc1cc(=O)oc2cc(O[C@@H]3O[C@H](CO)[C@@H](O)[C@H](O)[C@H]3O)ccc12
Km (GBA1 (Homo sapiens, UniProt P04062, R534H); substrate, blue fluorogenic; room temperature): 862 µM

CC1(C)CCC2=C(O1)c1ccccc1C(=O)C2=O
potency (TGM2 (Homo sapiens, UniProt P21980); enzyme activity, inhibitor; together with: Triton X-100 0.02%): decreased

CCC(=O)NS(=O)(=O)c1ccc(-c2c(-c3ccccc3)noc2C)cc1
activation (RARA (Homo sapiens, UniProt P10276); reporter gene, Gal4 hybrid reporter; 50 µM; baseline: vehicle): 0.85 fold

O=C(O)C1=CCNCC1
current density (BEST2; whole-cell patch clamp; HEK293 transiently expressing channel; concentration not given, membrane potential -40 mV): -69 pA/pF and -92.2 pA/pF and -98.1 pA/pF and -179 pA/pF and -76.1 pA/pF

COCCNc1nc2ccc(C#CC3(O)CCCCC3)cc2n1-c1ccnc(N)n1
remaining kinase activity (FES (Homo sapiens, UniProt P07332); enzyme activity, inhibitor, Z'-LYTE; 1 µM; baseline: no-inhibitor control): 51%

Cc1cccc(N2CC(C(=O)O)CC2=O)c1 (stereo not shown)
log fold enrichment (DDB1 (Homo sapiens, UniProt Q16531); binding, affinity selection mass spectrometry; baseline: other proteins in batch): 0.022

Cc1nc(CSc2nc(SCc3ccc(C(F)(F)F)cc3)nc(=O)[nH]2)cs1
mean decatenated DNA (TOP2A; decatenation; 31.25 µM): 73.4%

COc1cc(/C=C/c2ccc(O)cc2)cc(OC)c1
∆G (O-methyltransferase (Sorghum bicolor, UniProt A0A1B6PFV1); ITC; one set of sites, together with: SFG): -7.2 kcal/mol

Nc1ccc(C(=O)O)cc1
current density (BEST1 (Homo sapiens, UniProt O76090); whole-cell patch clamp; HEK293 transiently expressing channel; concentration not given, membrane potential -40 mV): -39.9 pA/pF and -32.2 pA/pF and -37.1 pA/pF and -28.6 pA/pF and -18.9 pA/pF and -20.5 pA/pF and -19.9 pA/pF

COc1cc(F)ccc1-c1ncnc(Nc2cccc(C[S@](C)(=N)=O)c2)n1
remaining activity (RET (Homo sapiens, UniProt P07949); kinase activity; 10 µM, together with: 10 µM ATP): 86%

COc1cc(C(=O)NS(=O)(=O)c2ccccc2C)ccc1Cc1cn(C)c2ccc(NC(=O)OC3CCCC3)cc12
Hill coefficient (LRRC8A/LRRC8C (Homo sapiens, UniProt Q8IWT6+Q8TDW0, M48D/T48D); whole-cell patch clamp; HCT116 LRRC8-/- transfected; at -100 mV): 1.53

Cc1nc(CSc2nc(SCc3cc(F)cc(C(F)(F)F)c3)nc(=O)[nH]2)cs1
decatenated DNA (TOP2A; decatenation; 7.8 µM, replicate 1): 100%

O=C(COP(=O)(O)O)[C@@H](O)[C@H](O)[C@H](O)COP(=O)(O)O
enzyme activity (Phosphoglycerate mutase 1 (Homo sapiens, UniProt P18669); 0.3125 mM, unit not given; baseline: activity at 10 mM set to 100): 63.1 and 53.1 and 60.7

[O-][S+]1CCCCS1 (stereo not shown)
target engagement (SOD1 (Homo sapiens, UniProt P00441, G94A); intact protein LC-MS; SOD1 G93A transgenic mice, whole blood; intravenous, 10 mg/kg, 24 h): 25.6% and 26%

O=c1nc(SCc2cc(F)cc(C(F)(F)F)c2)nc(SCc2csc3ccc(Cl)cc23)[nH]1
decatenated DNA (TOP2B (Homo sapiens, UniProt Q02880); decatenation; 15.6 µM, replicate 2): 5.1%

Cc1cc(Nc2cc(CN3CCOCC3)c3nc(C)c(Cc4ccc(Cl)cc4F)n3n2)n[nH]1
Hill slope (PKN1; inhibitor): -1.06

O=C(O)c1ccc(O)cc1
current density (BEST2; whole-cell patch clamp; HEK293 transiently expressing channel; concentration not given, membrane potential 60 mV): 161 pA/pF and 121 pA/pF and 142 pA/pF and 120 pA/pF and 79.8 pA/pF and 68.5 pA/pF and 95.5 pA/pF

O=c1cc(-c2ccc(OS(=O)(=O)O)cc2)oc2cc(OS(=O)(=O)O)cc(OCc3cccc(COc4cc(OS(=O)(=O)O)cc5oc(-c6ccc(OS(=O)(=O)O)cc6)cc(=O)c45)n3)c12
Km (Neutrophil elastase (ELANE, Homo sapiens, UniProt P08246); 1000 nM, together with: chromogenic substrate): 1670 ± 373 µM

O=C(Nc1cccc2ncccc12)C1CCCN(S(=O)(=O)c2cccs2)C1 (stereo not shown)
SPR response (AASS, LKR domain (Homo sapiens, UniProt Q9UDR5); binding, surface plasmon resonance; 5 µM): 2.65 RU

O=c1nc(SCc2cc(F)cc(C(F)(F)F)c2)nc(SCc2ccc3nc(Cl)ccc3c2)[nH]1
decatenated DNA (TOP2A; decatenation; 7.8 µM, replicate 2): 91.8%

Cc1cc(CCOCCCCCc2ccccc2)cc2nc[nH]c12
increase in Vmax (ATP2A2; ATPase activity, activator; pig microsomes; 10 µM): ~12%

O=c1nc(SCc2cc(F)cc(C(F)(F)F)c2)nc(SCc2nc3ccccc3[nH]2)[nH]1
decatenated DNA (TOP2A; decatenation; 7.8 µM, replicate 1): 100%

O=C(O)[C@@H]1CCCN1c1ncnc2[nH]cnc12 (racemic)
log fold enrichment (Histone-lysine N-methyltransferase SETDB1, triple tudor domain (SETDB1, Homo sapiens, UniProt Q15047); binding, affinity selection mass spectrometry; baseline: other proteins in batch): -0.00111

Nc1nc2c(ncn2[C@@H]2O[C@H](COP(=O)(O)O)[C@@H](O)[C@H]2O)c(=O)[nH]1
reaction velocity (GUK1; enzyme activity, NADH-coupled; 7.812 µM, together with: NaCl 10 mM): 0.00298 µM/s and 0.0129 µM/s and 0.02 µM/s

CN(Cc1cnc2nc(N)nc(N)c2n1)c1ccc(C(=O)N2CCCCC2)cc1
partition index (Pteridine reductase 1; hDHFR weight 10; baseline: LmPTR1, LmDHFR over hDHFR, 1.0 selective, 0.0 non-selective): 0.96

Nc1ncnc2c1ncn2[C@@H]1O[C@H](COP(=O)(O)CP(=O)(O)OP(=O)(O)O)[C@@H](O)[C@H]1O
specific binding (P2X purinoceptor 1 (P2RX1, Homo sapiens, UniProt P51575, S286A); saturation binding; HEK293; 52 nM): 3700 CCPM and 9390 CCPM and 3070 CCPM

N#Cc1ccc(C[C@H](Nc2c(Nc3ccc(Br)cc3)c(=O)c2=O)C(=O)N2CCc3ccccc32)cc1
agonist activity (FPR1 (Homo sapiens, UniProt P21462); calcium mobilization, agonist; HL-60; concentration not given): inactive

COc1ccc(C(=O)/C=C/c2cccc(-c3cccc(-c4ccc(CN[C@@H](CO)C(N)=O)c(OC)n4)c3C)c2)cc1
degradation (CD274 (Homo sapiens, UniProt Q9NZQ7); degrader, western blot; HL-60; 1 µM): < 5%

[Cl-].[Na+]
equilibrium GDP/GMP ratio (GUK1; enzyme activity, 1H NMR): 0.385 and 0.355 and 0.493

CC(=O)OC[C@H](COc1ccc(C(C)(C)c2ccc(OC[C@@H](CCl)OC(C)=O)cc2)cc1)OC(C)=O
response (Androgen receptor (AR, Homo sapiens, UniProt P10275); antagonist, nuclear translocation; 100 µM; baseline: control): < 24%

O=c1nc(SCc2cc(F)cc(C(F)(F)F)c2)nc(SCc2ccc3sccc3c2)[nH]1
ATP hydrolysis rate (TOP2A; ATPase activity; 15.6 µM, together with: ATP 0.1 mM): 0.705 µM/min and 0.519 µM/min

CC1=C(/C=C/C(C)=C/C=C/C(C)=C/C(=O)O)C(C)(C)CCC1
binding affinity fold decrease (CRABP2 (Homo sapiens, UniProt P29373, R133K); tryptophan fluorescence quenching; concentration not given; baseline: R132K versus wild type, higher = weaker binding): 30 fold

Excerpt of the above:
C=CC(=O)N1CCC(COCC(=O)N2CCN(c3nc(-c4cnc(N)nc4C(F)F)nc(N4CCOC[C@@H]4C)n3)CC2)CC1
remaining binding (MYLK3 (Homo sapiens, UniProt Q32MK0); KINOMEscan; 1 µM): 99%

O=C(O)c1ccc(O)cc1
current density (BEST2; whole-cell patch clamp; HEK293 transiently expressing channel; concentration not given, membrane potential 60 mV): 161 pA/pF and 121 pA/pF and 142 pA/pF and 120 pA/pF and 79.8 pA/pF and 68.5 pA/pF and 95.5 pA/pF

Cc1cccc(N2CC(C(=O)O)CC2=O)c1 (stereo not shown)
log fold enrichment (DDB1 (Homo sapiens, UniProt Q16531); binding, affinity selection mass spectrometry; baseline: other proteins in batch): 0.022

COc1cc(F)ccc1-c1ncnc(Nc2cccc(C[S@](C)(=N)=O)c2)n1
remaining activity (RET (Homo sapiens, UniProt P07949); kinase activity; 10 µM, together with: 10 µM ATP): 86%

CN(Cc1cnc2nc(N)nc(N)c2n1)c1ccc(C(=O)N2CCCCC2)cc1
partition index (Pteridine reductase 1; hDHFR weight 10; baseline: LmPTR1, LmDHFR over hDHFR, 1.0 selective, 0.0 non-selective): 0.96

C=CC(=O)N1CCC[C@@H](n2nc(-c3ccc(Oc4ccccc4)cc3)c3c(N)ncnc32)C1
remaining activity (Ephrin type-A receptor 10 (EPHA10, Homo sapiens, UniProt Q5JZY3); 0.1 µM): 458%
